Values quoted from earlier work, collected from citations in different studies.
Compare with care: the assays were run in different laboratories. Several values in a cell are separate wells, animals, samples, runs or records. Numbers after ± are the reported error.
Sequence of UniProt Q9UQ88 (whole entry, looked up): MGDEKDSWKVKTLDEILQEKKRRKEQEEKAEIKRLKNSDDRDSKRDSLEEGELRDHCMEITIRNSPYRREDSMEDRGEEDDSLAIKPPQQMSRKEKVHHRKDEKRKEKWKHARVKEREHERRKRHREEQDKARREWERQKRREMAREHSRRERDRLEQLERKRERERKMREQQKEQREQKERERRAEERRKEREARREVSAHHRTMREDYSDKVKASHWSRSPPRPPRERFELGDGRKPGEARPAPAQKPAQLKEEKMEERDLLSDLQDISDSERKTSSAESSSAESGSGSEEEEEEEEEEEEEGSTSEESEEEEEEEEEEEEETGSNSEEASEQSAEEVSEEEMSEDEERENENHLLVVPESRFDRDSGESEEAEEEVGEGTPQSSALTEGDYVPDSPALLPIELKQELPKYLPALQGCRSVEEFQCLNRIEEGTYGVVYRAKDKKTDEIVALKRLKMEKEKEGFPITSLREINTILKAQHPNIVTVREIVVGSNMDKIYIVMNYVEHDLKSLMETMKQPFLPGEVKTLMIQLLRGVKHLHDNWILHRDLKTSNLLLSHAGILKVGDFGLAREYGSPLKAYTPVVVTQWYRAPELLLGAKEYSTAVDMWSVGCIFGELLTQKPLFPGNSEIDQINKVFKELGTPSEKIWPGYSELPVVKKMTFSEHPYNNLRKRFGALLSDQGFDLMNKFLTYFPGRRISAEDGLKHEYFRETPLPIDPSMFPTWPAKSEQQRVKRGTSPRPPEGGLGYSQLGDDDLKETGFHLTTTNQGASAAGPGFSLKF
Sequence of UniProt P42336 (whole entry, unmodified, looked up): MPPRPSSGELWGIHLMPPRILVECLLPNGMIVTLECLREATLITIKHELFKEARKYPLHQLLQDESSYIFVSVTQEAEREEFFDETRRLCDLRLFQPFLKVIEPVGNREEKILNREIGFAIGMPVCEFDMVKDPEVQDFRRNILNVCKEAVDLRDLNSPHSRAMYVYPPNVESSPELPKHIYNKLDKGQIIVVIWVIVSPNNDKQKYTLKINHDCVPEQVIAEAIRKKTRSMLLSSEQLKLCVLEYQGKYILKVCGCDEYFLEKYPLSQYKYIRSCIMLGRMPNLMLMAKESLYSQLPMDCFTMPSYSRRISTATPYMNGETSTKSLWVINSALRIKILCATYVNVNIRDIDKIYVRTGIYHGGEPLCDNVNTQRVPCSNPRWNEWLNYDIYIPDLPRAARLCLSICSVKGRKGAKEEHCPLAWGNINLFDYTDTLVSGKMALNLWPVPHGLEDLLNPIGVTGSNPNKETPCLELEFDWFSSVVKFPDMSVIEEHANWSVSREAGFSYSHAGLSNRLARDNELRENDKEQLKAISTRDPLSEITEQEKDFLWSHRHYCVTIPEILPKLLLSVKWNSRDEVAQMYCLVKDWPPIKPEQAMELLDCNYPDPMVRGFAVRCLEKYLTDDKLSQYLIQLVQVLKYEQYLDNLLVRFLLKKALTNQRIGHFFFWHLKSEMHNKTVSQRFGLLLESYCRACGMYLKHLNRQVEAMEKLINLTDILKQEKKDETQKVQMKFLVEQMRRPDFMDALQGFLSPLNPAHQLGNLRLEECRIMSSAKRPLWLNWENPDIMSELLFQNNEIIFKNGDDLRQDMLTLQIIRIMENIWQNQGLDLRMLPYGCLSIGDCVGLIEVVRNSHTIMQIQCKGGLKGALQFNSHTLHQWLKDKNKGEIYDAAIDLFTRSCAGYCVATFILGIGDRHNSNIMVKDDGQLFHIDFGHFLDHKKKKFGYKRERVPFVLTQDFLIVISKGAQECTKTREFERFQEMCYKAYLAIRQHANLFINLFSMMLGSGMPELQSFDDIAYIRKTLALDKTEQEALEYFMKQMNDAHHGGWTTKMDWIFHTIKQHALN

Cc1c(C#N)cccc1[C@@H](C)Nc1nnc(C)c2cnc(N3CCOCC3)cc12  IC50 (HOP-92; 3D cell viability; 14 d): 220.4 ± 0.35 nM
O=NN(CCCl)C(=O)NC1CCCCC1  objective response rate (patients, recurrent glioblastoma; dose not given, monotherapy): 3%
C=CC(=O)NC1CCN(c2ncc3ncnc(Nc4ccc(Oc5ccc6c(c5)ncn6C)c(C)c4)c3n2)CC1  confirmed overall response rate (patients, NSCLC, HER2-mutant, previously treated; 120 mg once daily): 71%
CC1(C)S[C@@H]2[C@H](NC(=O)[C@H](N)c3ccccc3)C(=O)N2[C@H]1C(=O)O  MIC (Pseudomonas aeruginosa; clinical isolate RKI-No_359/11): > 16 µg/mL
CCc1ncc(C)nc1CC  odour detection threshold (human, water): 0.031 µg/kg
CCc1cc2c(cc1CC)CC(NC[C@H](O)c1ccc(O)c3[nH]c(=O)ccc13)C2  placebo-corrected trough FEV1 change (COPD patients; inhaled, 150 µg once daily, 24 h postdose, dosing day 182; baseline: baseline): 160 mL
O=C(O)C(O)Cc1ccc(O)c(O)c1 (stereo not drawn)  effective dose (anti-inflammatory effect; rat CLP sepsis; intragastric): 5 mg/kg
CC(=O)c1nccnc1C  odour detection threshold (human, water): 4 µg/kg
C=CC(=O)N1CCC(C(=O)NCC(=O)N2CCN(c3nc(-c4cnc(N)nc4C(F)F)nc(N4CCOCC4)n3)CC2)CC1  remaining activity (Phosphatidylinositol 4,5-bisphosphate 3-kinase catalytic subunit alpha isoform (PIK3CA, Homo sapiens, UniProt P42336, M1043I); kinase activity; 1 µM): 0%
C[C@]12CC[C@@H]3c4ccc(O)cc4C[C@@H](CCCCCCCCC[S+]([O-])CCCC(F)(F)C(F)(F)F)[C@H]3[C@@H]1CC[C@@H]2O (stereo partly drawn)  median progression-free survival (human, ER+ breast cancer; dose not given, after endocrine therapy progression): 3.8 months
CCOC(=O)N1CCC(=C2c3ccc(Cl)cc3CCc3cccnc32)CC1  AC50 (antioxidant response element activation, Tox21 HTS): 6400 nM
C=C1[C@H](CO)[C@@H](O)C[C@@H]1n1cnc2c(=O)[nH]c(N)nc21  HBsAg reduction (chronic hepatitis B patients; dose not given, 12 months, with: lamivudine; baseline: baseline): 0.08 log10 IU/mL
FC(F)(F)c1ccc(Nc2ccnc3nc(-c4ncccc4C(F)(F)F)ccc23)cc1  IC50 (TRPV1; calcium flux, antagonist; HEK293; with: capsaicin): 6.1 nM
Nc1cc(C(F)(F)F)c(-c2nc(N3CCOCC3)nc(N3CCOCC3)n2)cn1  remaining activity (Cyclin-dependent kinase 11A (CDK11A, Homo sapiens, UniProt Q9UQ88); enzyme activity; 10 µM; baseline: untreated): 100%
COC[C@@H](c1ccc(C(F)(F)F)cc1)N1CCN(C2(C)CCN(C(=O)c3c(C)ncnc3C)CC2)C[C@@H]1C  HIV RNA decrease (human, ART-naive HIV infected; dose not given, day 14, monotherapy): ≤ 1.6 log copies/mL
Cc1ccc(CNC(=O)Nc2cccc3[nH]ncc23)c(N2CCCCC2)n1  IC50 (TRPV1; calcium flux, antagonist; HEK293; with: capsaicin): 16 nM
COc1cc2c(Nc3ccc(Cl)c(Cl)c3F)ncnc2cc1OC[C@@H]1C[C@@H]2CN(C)C[C@@H]2C1  progression-free survival (treatment-naive patients, advanced EGFR-mutant NSCLC; dose not given, phase II trial): 9.3 months
Nc1cccc2c1C(=O)N(C1CCC(=O)NC1=O)C2=O (stereo not drawn)  partial response or better rate (relapsed refractory multiple myeloma patients; dose not given, bortezomib and lenalidomide refractory): 16%
C[C@H]1COCCN1c1nc(-c2cnc(N)cc2C(F)F)nc(N2CCOCC2)n1  GI50 (RKO): 477 nM
CC(C)n1c(Nc2cccnc2)nc2cnc(Nc3ccc(N4CCN(C)CC4)cc3)nc21  overall response rate (human relapsed or refractory AML; 160 mg/day and higher): ~43%
COc1cccc2c1C(=O)c1c(O)c3c(c(O)c1C2=O)C[C@@](O)(C(=O)CO)C[C@@H]3O[C@H]1C[C@H](N)[C@H](O)[C@H](C)O1  median duration of response (human epithelioid sarcoma patients; dose not given): < 2 months
COc1cc(NC(=O)CCN2CCC(OC(=O)Nc3ccccc3-c3ccccc3)CC2)c(Cl)cc1CNC[C@H](O)c1ccc(O)c2[nH]c(=O)ccc12  placebo-corrected trough FEV1 change (COPD patients; inhaled, 400 µg twice daily, 12 h postdose, dosing day 1; baseline: baseline): 172 mL
CN(C)c1ccc2c(c1)C#Cc1ccc([N+](C)(C)C)cc1C#C2.O=C([O-])C(F)(F)F  second-order rate constant (UV spectroscopy; methanol; room temperature, with: benzyl azide): 0.0973 M⁻¹ s⁻¹ and 0.0976 M⁻¹ s⁻¹
CNC(C)C1CCC(N)C(OC2C(N)CC(N)C(OC3OCC(C)(O)C(NC)C3O)C2O)O1 (stereo not drawn)  MIC (Pseudomonas aeruginosa; clinical isolate RKI-No_359/11): > 8 µg/mL
CC1(C)CCC(CN2CCN(c3ccc(C(=O)NS(=O)(=O)c4ccc(NCC5CCOCC5)c([N+](=O)[O-])c4)c(Oc4cnc5[nH]ccc5c4)c3)CC2)=C(c2ccc(Cl)cc2)C1  CR with partial hematologic recovery rate (human, newly diagnosed AML; concentration not given, with: decitabine): 7.7%
COC(=O)C1=C(C)NC(C)=C(C(=O)OC)C1c1c(-c2cccc(C(F)(F)F)c2)nc2sccn12  inhibition (calcium-induced contraction; guinea pig aortic strip; 50 µM, with: K+ 80 mM depolarisation): 27 ± 1.3%
O=C(NC[C@H]1CN(c2ccc(N3CCOCC3=O)cc2)C(=O)O1)c1ccc(Cl)s1  prothrombin time (point-of-care; dog, whole blood; 1 mg/kg/day): no effect

Repeated from above:
COC[C@@H](c1ccc(C(F)(F)F)cc1)N1CCN(C2(C)CCN(C(=O)c3c(C)ncnc3C)CC2)C[C@@H]1C  HIV RNA decrease (human, ART-naive HIV infected; dose not given, day 14, monotherapy): ≤ 1.6 log copies/mL
CNC(C)C1CCC(N)C(OC2C(N)CC(N)C(OC3OCC(C)(O)C(NC)C3O)C2O)O1 (stereo not drawn)  MIC (Pseudomonas aeruginosa; clinical isolate RKI-No_359/11): > 8 µg/mL
Nc1cc(C(F)(F)F)c(-c2nc(N3CCOCC3)nc(N3CCOCC3)n2)cn1  remaining activity (Cyclin-dependent kinase 11A (CDK11A, Homo sapiens, UniProt Q9UQ88); enzyme activity; 10 µM; baseline: untreated): 100%
